Measurements from different studies.
Numbered parts are unrelated; each lists some results of a single study.
Chain of UniProt Q6PHR2 (whole entry, looked up): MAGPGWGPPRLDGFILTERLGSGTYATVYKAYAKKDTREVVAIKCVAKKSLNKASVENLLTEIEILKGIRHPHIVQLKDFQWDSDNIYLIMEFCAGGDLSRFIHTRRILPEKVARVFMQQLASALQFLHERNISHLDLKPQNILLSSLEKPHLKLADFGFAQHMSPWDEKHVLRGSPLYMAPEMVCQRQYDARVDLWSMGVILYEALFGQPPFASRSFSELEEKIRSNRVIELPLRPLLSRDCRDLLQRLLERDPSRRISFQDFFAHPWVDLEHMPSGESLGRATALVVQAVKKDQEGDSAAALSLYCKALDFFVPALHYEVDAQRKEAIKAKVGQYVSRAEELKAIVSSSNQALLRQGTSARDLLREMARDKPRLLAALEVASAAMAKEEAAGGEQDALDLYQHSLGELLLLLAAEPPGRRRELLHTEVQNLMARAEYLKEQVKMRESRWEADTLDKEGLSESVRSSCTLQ
Chain of UniProt Q96PN8 (whole entry, looked up): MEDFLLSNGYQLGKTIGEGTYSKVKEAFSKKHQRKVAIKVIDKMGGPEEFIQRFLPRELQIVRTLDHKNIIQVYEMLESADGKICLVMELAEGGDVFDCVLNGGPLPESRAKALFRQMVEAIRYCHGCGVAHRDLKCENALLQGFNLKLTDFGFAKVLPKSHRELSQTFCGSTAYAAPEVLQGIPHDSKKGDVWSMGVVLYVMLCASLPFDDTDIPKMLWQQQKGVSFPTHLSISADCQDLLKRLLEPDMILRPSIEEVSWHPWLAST
Chain of UniProt Q00526 (whole entry, looked up): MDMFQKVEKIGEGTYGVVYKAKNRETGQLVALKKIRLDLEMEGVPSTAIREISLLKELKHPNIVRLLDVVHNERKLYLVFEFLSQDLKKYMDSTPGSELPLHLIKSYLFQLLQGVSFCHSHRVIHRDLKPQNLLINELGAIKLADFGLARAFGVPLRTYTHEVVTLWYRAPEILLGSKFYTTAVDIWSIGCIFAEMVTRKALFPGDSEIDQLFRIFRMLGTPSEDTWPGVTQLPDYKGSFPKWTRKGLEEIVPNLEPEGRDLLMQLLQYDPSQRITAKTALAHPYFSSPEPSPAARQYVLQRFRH
Chain of UniProt Q06187 (whole entry, looked up): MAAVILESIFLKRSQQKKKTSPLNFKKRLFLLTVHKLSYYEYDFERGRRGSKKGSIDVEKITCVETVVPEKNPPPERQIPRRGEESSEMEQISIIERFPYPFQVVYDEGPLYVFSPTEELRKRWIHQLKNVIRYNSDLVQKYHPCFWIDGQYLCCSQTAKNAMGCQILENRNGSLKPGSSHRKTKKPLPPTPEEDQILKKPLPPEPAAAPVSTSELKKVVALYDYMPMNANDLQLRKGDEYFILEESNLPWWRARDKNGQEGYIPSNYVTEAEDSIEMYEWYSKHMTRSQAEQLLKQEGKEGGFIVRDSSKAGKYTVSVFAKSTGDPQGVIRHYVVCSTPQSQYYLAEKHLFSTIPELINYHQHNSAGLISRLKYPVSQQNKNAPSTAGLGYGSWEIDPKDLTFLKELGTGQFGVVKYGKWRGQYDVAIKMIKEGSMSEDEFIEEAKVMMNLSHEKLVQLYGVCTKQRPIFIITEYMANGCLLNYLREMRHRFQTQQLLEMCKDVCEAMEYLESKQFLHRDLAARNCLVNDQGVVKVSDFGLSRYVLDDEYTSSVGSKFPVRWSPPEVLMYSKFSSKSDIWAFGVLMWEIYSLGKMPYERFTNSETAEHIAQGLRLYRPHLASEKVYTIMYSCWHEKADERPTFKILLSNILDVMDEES
Chain of UniProt P51617 (whole entry, looked up): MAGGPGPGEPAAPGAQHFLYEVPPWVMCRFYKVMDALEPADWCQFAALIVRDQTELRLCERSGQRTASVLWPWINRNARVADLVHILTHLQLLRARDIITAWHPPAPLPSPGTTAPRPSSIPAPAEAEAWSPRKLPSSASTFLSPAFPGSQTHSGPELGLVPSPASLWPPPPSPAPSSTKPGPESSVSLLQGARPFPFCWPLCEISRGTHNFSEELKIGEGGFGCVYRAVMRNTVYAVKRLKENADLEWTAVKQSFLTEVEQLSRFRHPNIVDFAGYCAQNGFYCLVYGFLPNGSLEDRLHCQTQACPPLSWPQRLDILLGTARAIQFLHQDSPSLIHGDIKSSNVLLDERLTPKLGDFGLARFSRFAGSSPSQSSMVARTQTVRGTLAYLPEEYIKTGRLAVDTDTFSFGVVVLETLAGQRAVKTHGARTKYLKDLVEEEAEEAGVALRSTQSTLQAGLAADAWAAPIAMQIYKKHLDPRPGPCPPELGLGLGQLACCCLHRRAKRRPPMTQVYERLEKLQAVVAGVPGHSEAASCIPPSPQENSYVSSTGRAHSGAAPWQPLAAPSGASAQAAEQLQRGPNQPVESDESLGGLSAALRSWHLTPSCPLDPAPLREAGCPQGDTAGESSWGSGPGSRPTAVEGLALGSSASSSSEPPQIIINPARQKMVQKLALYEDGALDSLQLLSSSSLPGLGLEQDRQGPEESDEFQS
Chain of UniProt Q9Y243 (whole entry, looked up): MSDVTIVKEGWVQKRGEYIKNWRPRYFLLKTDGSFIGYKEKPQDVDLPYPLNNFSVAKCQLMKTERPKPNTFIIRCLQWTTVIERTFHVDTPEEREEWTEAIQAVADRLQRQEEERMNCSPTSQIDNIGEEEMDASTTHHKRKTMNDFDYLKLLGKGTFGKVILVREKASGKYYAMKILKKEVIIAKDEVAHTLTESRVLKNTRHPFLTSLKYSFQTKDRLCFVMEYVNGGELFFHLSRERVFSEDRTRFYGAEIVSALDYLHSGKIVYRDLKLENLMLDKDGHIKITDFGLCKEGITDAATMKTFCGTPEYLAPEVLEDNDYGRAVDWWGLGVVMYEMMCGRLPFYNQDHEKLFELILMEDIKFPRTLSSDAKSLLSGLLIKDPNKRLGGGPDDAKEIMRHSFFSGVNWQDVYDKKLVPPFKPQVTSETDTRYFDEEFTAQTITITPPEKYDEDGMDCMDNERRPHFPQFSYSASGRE
Chain of UniProt P51956 (whole entry, looked up): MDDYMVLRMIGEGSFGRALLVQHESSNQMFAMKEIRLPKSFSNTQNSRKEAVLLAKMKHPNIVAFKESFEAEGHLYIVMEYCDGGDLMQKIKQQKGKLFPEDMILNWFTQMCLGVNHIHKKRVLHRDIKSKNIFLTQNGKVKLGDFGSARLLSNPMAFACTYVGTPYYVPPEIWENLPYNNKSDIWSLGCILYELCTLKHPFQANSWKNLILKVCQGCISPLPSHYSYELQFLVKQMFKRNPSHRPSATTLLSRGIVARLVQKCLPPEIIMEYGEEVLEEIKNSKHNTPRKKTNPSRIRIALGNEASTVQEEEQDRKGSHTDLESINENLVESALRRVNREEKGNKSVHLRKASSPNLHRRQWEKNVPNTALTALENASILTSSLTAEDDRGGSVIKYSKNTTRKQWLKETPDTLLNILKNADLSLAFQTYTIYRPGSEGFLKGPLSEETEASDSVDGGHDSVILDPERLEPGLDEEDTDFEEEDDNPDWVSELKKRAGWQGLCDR
Chain of UniProt Q15208 (whole entry, looked up): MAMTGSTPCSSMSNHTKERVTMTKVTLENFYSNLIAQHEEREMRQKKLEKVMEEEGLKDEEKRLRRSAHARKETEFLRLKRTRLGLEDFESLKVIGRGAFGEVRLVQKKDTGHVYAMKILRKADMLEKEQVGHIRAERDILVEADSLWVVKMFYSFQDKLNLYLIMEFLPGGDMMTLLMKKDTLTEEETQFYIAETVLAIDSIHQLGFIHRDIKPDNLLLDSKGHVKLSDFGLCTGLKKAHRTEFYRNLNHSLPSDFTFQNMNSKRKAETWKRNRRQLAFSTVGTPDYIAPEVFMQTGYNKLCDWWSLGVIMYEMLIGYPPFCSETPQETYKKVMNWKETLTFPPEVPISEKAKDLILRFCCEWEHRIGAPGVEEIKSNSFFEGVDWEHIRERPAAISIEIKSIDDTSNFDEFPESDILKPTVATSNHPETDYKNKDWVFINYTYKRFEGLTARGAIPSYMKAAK
Chain of UniProt P45984 (whole entry, looked up): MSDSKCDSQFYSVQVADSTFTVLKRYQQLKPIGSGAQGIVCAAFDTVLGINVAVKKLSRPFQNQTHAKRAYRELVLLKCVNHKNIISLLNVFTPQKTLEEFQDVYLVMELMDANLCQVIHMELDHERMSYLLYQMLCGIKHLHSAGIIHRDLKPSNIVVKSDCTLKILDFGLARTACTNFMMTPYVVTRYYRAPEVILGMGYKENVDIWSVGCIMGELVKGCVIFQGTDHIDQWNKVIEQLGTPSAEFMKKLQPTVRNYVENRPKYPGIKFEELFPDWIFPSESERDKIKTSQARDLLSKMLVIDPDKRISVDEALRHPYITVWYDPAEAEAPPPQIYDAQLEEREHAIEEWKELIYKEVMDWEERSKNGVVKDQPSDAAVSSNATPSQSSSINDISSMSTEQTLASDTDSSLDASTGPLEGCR

Series 1 — effect on: enzyme activity; mode: inhibitor; tested at: 0.5 µM; reference: control; measurement: remaining activity
Target: Protein kinase C gamma type (PRKCG, Homo sapiens, UniProt P05129)
SMILES = Cc1nc2cc3nc(-c4cccs4)cnc3cc2n1C; result = 94.9%
SMILES = CCOc1nc(NC(=O)Cc2cc(OC)ccc2OC)cc(N)c1C#N; result = 95.4%
SMILES = COc1cc2ncnc(Nc3cccc(Cl)c3)c2cc1OC; result = 105%
SMILES = N#Cc1c(NC(=O)c2cccc3ccccc23)sc2c1CCCC2; result = 95.4%
SMILES = COc1cc2c(cc1OC)-c1[nH]nc(Nc3cccc(F)c3)c1C2; result = 102%
SMILES = Nc1cccc(-c2cc3c(Oc4cccc(O)c4)ncnc3[nH]2)c1; result = 88.1%
SMILES = CCN(CC)C(=O)c1ccc(Nc2nc(OCC3CCCCC3)c3[nH]cnc3n2)cc1; result = 94.5%
SMILES = Cc1cc2ncc(-c3ccccc3)nc2cc1C; result = 96.9%
SMILES = Cn1nc2c3c(cccc31)C(=O)c1ccccc1-2; result = 90.6%
SMILES = O=C1c2ccccc2-c2n[nH]c3cccc1c23; result = 98.3%
SMILES = c1ccc(-c2[nH]ncc2-c2ccnc3ccccc23)nc1; result = 117%
SMILES = O=C(Nc1cccc(Nc2nccc(Nc3cccc(C(F)(F)F)c3)n2)c1)C1CC1; result = 90.9%

Series 2 — mode: inhibitor; tested at: 1 µM; measurement: inhibition
Structure (SMILES): CO[C@@H]1[C@H](N(C)C(=O)c2ccccc2)C[C@H]2O[C@]1(C)n1c3ccccc3c3c4c(c5c6ccccc6n2c5c31)C(=O)NC4
target = Serine/threonine-protein kinase 36 (STK36, Homo sapiens, UniProt Q9NRP7); effect on = enzyme activity; result = 0%
target = Tyrosine-protein kinase ABL1, non-phosphorylated (ABL1, Homo sapiens, UniProt P00519, H396P); effect on = enzyme activity; result = 5%
target = Calcium/calmodulin-dependent protein kinase kinase 1 (CAMKK1, Homo sapiens, UniProt Q8N5S9); effect on = enzyme activity; result = 89%
target = Tyrosine-protein kinase ABL1, non-phosphorylated (ABL1, Homo sapiens, UniProt P00519, T315I); effect on = enzyme activity; result = 0%
target = Tyrosine-protein kinase Tec (TEC, Homo sapiens, UniProt P42680); effect on = enzyme activity; result = 0%
target = Ephrin type-A receptor 8 (EPHA8, Homo sapiens, UniProt P29322); effect on = enzyme activity; result = 6%
target = Tyrosine-protein kinase JAK3 (JAK3, Homo sapiens, UniProt P52333); result = 100%
target = Serine/threonine-protein kinase Nek3 (NEK3, Homo sapiens, UniProt P51956); effect on = enzyme activity; result = 18%
target = Serine/threonine-protein kinase 38 (STK38, Homo sapiens, UniProt Q15208); effect on = enzyme activity; result = 21%

Series 3 — effect on: cell-free assay; technique: competition with immobilised ligand; tested at: 1 µM; measurement: remaining binding
SMILES: C[C@H](NC(=O)c1cnc2n1[C@](C)(Cc1ccc(C#N)cc1)C(=O)N2c1cc(Cl)c(F)c(Cl)c1)C(=O)NC1(c2ccccn2)CC1
target = Cyclin-dependent kinase 3 (CDK3, Homo sapiens, UniProt Q00526); result = 100%
target = Serine/threonine-protein kinase ULK3 (ULK3, Homo sapiens, UniProt Q6PHR2); result = 100%
target = Macrophage-stimulating protein receptor (MST1R, Homo sapiens, UniProt Q04912); result = 100%
target = RAC-gamma serine/threonine-protein kinase (AKT3, Homo sapiens, UniProt Q9Y243); result = 60%
target = Tyrosine-protein kinase BTK (BTK, Homo sapiens, UniProt Q06187); result = 100%
target = Serine/threonine-protein kinase mTOR (MTOR, Homo sapiens, UniProt P42345); result = 96%
target = Serine/threonine-protein kinase tousled-like 1 (TLK1, Homo sapiens, UniProt Q9UKI8); result = 100%
target = G protein-coupled receptor kinase 4 (GRK4, Homo sapiens, UniProt P32298); result = 100%
target = Interleukin-1 receptor-associated kinase 1 (IRAK1, Homo sapiens, UniProt P51617); result = 100%
target = Testis-specific serine/threonine-protein kinase 3 (TSSK3, Homo sapiens, UniProt Q96PN8); result = 100%
target = Mitogen-activated protein kinase 9 (MAPK9, Homo sapiens, UniProt P45984); result = 92%
target = Tyrosine-protein kinase Fyn (FYN, Homo sapiens, UniProt P06241); result = 70%
target = Tyrosine-protein kinase ABL1, phosphorylated (ABL1, Homo sapiens, UniProt P00519, F317L); result = 100%

Series 4 — host: human; sample: microsomes or S9; tested at: 2 µM; time: 0.5 h; measurement: remaining compound
Structure (SMILES) = Fc1ccc(-c2n[nH]cc2Cn2cnc(-c3ccccc3)c2-c2ncc[nH]2)cc1; result = 17.1%
Structure (SMILES) = O=C(c1ccc(Cn2ccn3nc4c(c3c2=O)CCCC4)cc1)N1CCN(c2ccccc2F)CC1; result = 34.6%
Structure (SMILES) = O=C(Cn1cnc2ccccc2c1=O)NCCn1ccc2cc(Br)ccc21; result = 1.67%
Structure (SMILES) = O=C(NCCCN1CCN(c2ccccc2F)CC1)c1ccc2c(c1)N(Cc1ccccc1)C(=O)c1ccccc1[S+]2[O-] (stereo not shown); result = 0.518%
Structure (SMILES) = CC1CCCC(=O)CCC/C=C/c2cc3c(c(O)c2C(=O)O1)C(c1ccc(OCC(N)=O)cc1)CC(=O)O3 (stereo not shown); result = 6.05%
Structure (SMILES) = CCCn1cnc2cc(-c3noc(-c4ccc(Br)o4)n3)ccc21; result = 36.6%
Structure (SMILES) = Cc1ccc(S(=O)(=O)N2c3c(c4ccccc4n3Cc3ccccc3)CC=CC2c2ccccc2)cc1 (stereo not shown); result = 32.7%
Structure (SMILES) = Cc1ccccc1-c1cccc2nc(-c3ccccc3)nn12; result = 34.1%
Structure (SMILES) = CCOc1nnc(Cc2ccccc2)c2ccccc12; result = 27.7%
Structure (SMILES) = COc1cc2c(cc1OC)C1(c3ccoc3)OC(=O)C(=O)N1CC2 (stereo not shown); result = 3.15%
Structure (SMILES) = CN(CC(C)(CO)CO)c1ccnc(C(C)(C)C)n1; result = 87.9%
Structure (SMILES) = Cc1ccc(-c2noc(=O)n2Cc2ccc(S(=O)(=O)N(C)C)cc2)cc1; result = 2.94%
Structure (SMILES) = CCNC(=O)N1CCC(CCOC)(NC(=O)NCC2CCCO2)CC1 (stereo not shown); result = > 100%
Structure (SMILES) = CCO[C@H]1CN(Cc2cccc(F)c2OC)C[C@@H]1O; result = 71.8%
Structure (SMILES) = CCOC(=O)c1[nH]c(C)c(CN(Cc2ccccc2)C(=O)CCC(=O)O)c1C; result = 2.7%

For quick reference, copied from above (series 2):
target = Serine/threonine-protein kinase 36 (STK36, Homo sapiens, UniProt Q9NRP7); effect on = enzyme activity; result = 0%
target = Tyrosine-protein kinase Tec (TEC, Homo sapiens, UniProt P42680); effect on = enzyme activity; result = 0%
target = Serine/threonine-protein kinase 38 (STK38, Homo sapiens, UniProt Q15208); effect on = enzyme activity; result = 21%
target = Tyrosine-protein kinase JAK3 (JAK3, Homo sapiens, UniProt P52333); result = 100%
target = Serine/threonine-protein kinase Nek3 (NEK3, Homo sapiens, UniProt P51956); effect on = enzyme activity; result = 18%
target = Calcium/calmodulin-dependent protein kinase kinase 1 (CAMKK1, Homo sapiens, UniProt Q8N5S9); effect on = enzyme activity; result = 89%
target = Tyrosine-protein kinase ABL1, non-phosphorylated (ABL1, Homo sapiens, UniProt P00519, H396P); effect on = enzyme activity; result = 5%
target = Tyrosine-protein kinase ABL1, non-phosphorylated (ABL1, Homo sapiens, UniProt P00519, T315I); effect on = enzyme activity; result = 0%
